Assay results from different studies.
Each line is one published result; not all experiments were run side by side. “And” joins repeats or separate records; there may be more than shown.

| Structure (SMILES) | cell line | test | conditions | how to read | viability |
| --- | --- | --- | --- | --- | --- |
| CC(C)(C)N1Cc2cc(-c3nc4ccccc4s3)cc(n2)CN(C(C)(C)C)Cc2cc(-c3nc4ccccc4s3)cc(n2)C1 | SH-SY5Y | AlamarBlue | 20 µM, 40 h | – | ~60% |
| CCOc1ccc(CN2CC[C@H]2C(=O)NC)cc1-c1cccc(C(=O)NC[C@@H]2COC(C)(C)O2)c1 | Huh-7-ACE2 | CellTiter-Glo | 0.391 µM, 48 h, unit not given | relative to: DMSO | 0.933 and 0.906 and 0.936 |
| O=c1n(CCNCCOS(=O)(=O)c2ccccc2)c(=O)n(S(=O)(=O)c2ccccc2)c(=O)n1S(=O)(=O)c1ccccc1 | HUVEC | cell growth or viability, MTT | 100 µg/mL, 24 h | – | 59.5% |
| CNC(=O)C[C@H](Cc1ccncc1)NC(=O)[C@@H](Cc1cccc(Br)c1)NC(=O)[C@@H](N)Cc1ccsc1 | Huh-7-ACE2 | CellTiter-Glo | 0.00153 µM, 48 h, unit not given | relative to: DMSO | 1.05 and 1 and 1.17 |
| CNC(=S)N/N=C/c1ccc(OCc2ccccc2)cc1 | IMR-32 | MTT | 200 µg/mL, 24 h | relative to: untreated control | 68.7% |
| CNC(=O)C[C@H](Cc1ccc(F)cc1)NC(=O)[C@@H](Cc1ccc(Cl)cc1Cl)NC(=O)[C@H](N)Cc1ccccc1C#N | Huh-7-ACE2 | CellTiter-Glo | 0.391 µM, 48 h, unit not given | relative to: DMSO | 1.03 and 1.08 and 0.967 |
| NC(=O)N/N=C/c1ccc(OCc2cccc(F)c2)cc1 | IMR-32 | MTT | 400 µg/mL, 24 h | relative to: untreated control | 43.8% |
| CC(=O)N[C@H]1[C@H](Oc2ccc(C[C@H](NC(=O)CN)C(=O)N[C@@H](CCC(=O)O)C(=O)N[C@H](C(=O)N[C@@H](Cc3c[nH]cn3)C(=O)N[C@@H](Cc3c[nH]cn3)C(=O)N[C@@H](CCC(N)=O)C(=O)N[C@@H](CCCCN)C(=O)N[C@@H](CC(C)C)C(=O)N[C@H](C(=O)N[C@@H](Cc3ccccc3)C(=O)N[C@@H](Cc3ccccc3)C(=O)N[C@@H](C)C(N)=O)C(C)C)C(C)C)cc2)O[C@H](CO)[C@H](O)[C@@H]1O | SH-SY5Y | CCK-8 | 12.5 µM, 24 h | relative to: untreated | 97.3% and 90.4% and 102% and 94.7% |
| NC(=S)N/N=C/c1ccc(OCc2ccccc2)cc1 | IMR-32 | MTT | 100 µg/mL, 24 h | relative to: untreated control | 73.8% |
| CC=CCC(C)C(O)C1C(=O)NC(CC)C(=O)N(C)C(OCC)C(=O)N(C)C(CC(C)(C)O)C(=O)NC(C(C)C)C(=O)N(C)C(CC(C)C)C(=O)NC(C)C(=O)NC(C)C(=O)N(C)C(CC(C)C)C(=O)N(C)C(CC(C)C)C(=O)N(C)C(C(C)C)C(=O)N1C (stereo not shown) | primary human hepatocytes | MTT | up to 80 µM | – | not toxic |

For quick reference, copied from above:
| Structure (SMILES) | cell line | test | conditions | how to read | viability |
| --- | --- | --- | --- | --- | --- |
| CC(C)(C)N1Cc2cc(-c3nc4ccccc4s3)cc(n2)CN(C(C)(C)C)Cc2cc(-c3nc4ccccc4s3)cc(n2)C1 | SH-SY5Y | AlamarBlue | 20 µM, 40 h | – | ~60% |
